Measured values of several laboratories.
Protocols differ between the studies behind these lines.

Compound	system	conditions	Cmax
CNC(=O)c1ccccc1Sc1ccc2c(/C=C/c3ccccn3)n[nH]c2c1	human, plasma	oral, 7 mg, single dose, fed	23.3 ng/mL
C[C@@H]1CCC[C@H](n2cnc(-c3cc(Cl)ccc3-n3cc(Cl)nn3)cc2=O)c2cc(ccn2)-c2c(cnn2C(F)F)NC1=O	human, plasma	oral, 300 mg, single dose, fasted, healthy volunteers	1020 ng/mL
C[C@H](N)C(=O)N1C[C@H](CCCB(O)O)[C@](N)(C(=O)O)C1	human, plasma	oral, 50 mg twice daily, multiple doses, patients	1020 ng/mL
CNc1nc(Nc2ccc(-n3cnc(C)n3)c(OC)c2)nc2c1CC[C@H]2c1ccc(F)cc1	human, plasma	oral, 100 mg, single dose, healthy volunteers	280 ng/mL
Cc1c(Cl)c(C)[n+]([O-])c(Cl)c1-c1noc(-c2cc(O)c(O)c([N+](=O)[O-])c2)n1	male human, plasma	oral, 50 mg, single dose, fasted, healthy volunteers	1460 ng/mL
Cc1cc(-c2ccc(C(=O)[C@@H]3CCCC[C@H]3C(=O)Nc3cnn4c3C(=O)NCC4)cc2)n[nH]1	human, plasma	oral, 25 mg, single dose, fasted, healthy volunteers	27.1 nM
CN1CC[C@@H](NC(=O)Nc2ccc(C#N)cc2)C[C@@H]1c1nc2ccccc2[nH]1	human, plasma	oral, 100 mg, single dose, patients	1020 ng/mL
CCCCCN1C[C@H](O)[C@@H](O)[C@H](O)[C@@H]1CO	male human, plasma	oral, 10 mg, single dose, fasted, healthy volunteers	99.8 ng/mL
CS(=O)(=O)n1cc2c(n1)CN([C@H]1CO[C@H](c3cc(F)ccc3F)[C@@H](N)C1)C2	male human, plasma	oral, 10 mg, single dose, fasted	298 nM
COc1cccc(OCCCN)c1-c1cc(Nc2cnc(C#N)cn2)n[nH]1	human, plasma	intravenous, 80 mg/m², patients, infusion	661 ng/mL
Cc1[nH]c2ccccc2c1CCNCc1ccc(/C=C/C(=O)NO)cc1	human, plasma	oral, 20 mg, single dose, fed	12 ng/mL
C[C@@H](N)c1cc(Cl)ccc1Cn1c(=S)[nH]c(=O)c2[nH]ccc21	human, plasma	oral, 10 mg, multiple doses, once daily, healthy volunteers	80.6 nM
CNC(=O)c1ccc(-c2cnc3ncc(Cc4ccc5ncccc5c4)n3n2)cc1F	human, plasma	oral, 100 mg twice daily, multiple doses, steady state, patients	660 ng/mL
C[C@H]1CO[C@@H]2Cn3cc(C(=O)NCc4ccc(F)cc4F)c(=O)c(O)c3C(=O)N12	human, plasma	oral, 30 mg, single dose, fed	3950 ng/mL
CC(C)(Sc1ccncc1-c1ccc(C#N)c2ccccc12)C(=O)O	male human, plasma	oral, 10 mg, single dose, fasted	21.9 ng/mL
C#C[C@]1(CO)O[C@@H](n2cnc3c(N)nc(F)nc32)C[C@@H]1O	human, plasma	oral, 400 mg, single dose, fasted	9910 nM
O=C(CCCCCCC(=O)Nc1ccccc1)NO	human, serum	oral, 600 mg, patients	2390 nM
CCCOc1ccc([C@H]2CNC(=O)N2c2ccc3[nH]cnc3c2)cc1	human, plasma	oral, 30 mg, single dose, fasted	91.4 ng/mL
O=C(c1nc2n(n1)[C@H](c1ccccc1)C[C@@H]2F)C1CC1	human, plasma	oral, 150 mg, single dose, fasted, healthy volunteers	1120 ng/mL
CNCc1ccc(-c2[nH]c3cc(F)cc4c3c2CCNC4=O)cc1	human, plasma	oral, 360 mg, multiple doses, twice daily, steady state, patients	1300 ng/mL
COc1cccc(-c2ccc(NC(=O)C3=C(C(=O)O)CCC3)c(F)c2)c1	male human, plasma	oral, 10 mg, single dose, fasted, healthy volunteers	1530 ng/mL
Nc1ncc(-c2cnn(CCO)c2)c2scc(-c3ccc(NC(=O)Nc4cccc(F)c4)cc3)c12	human, plasma	oral, 540 mg, patients	521 ng/mL
COc1cc(C(=O)NC2CCN(C)CC2)c(F)cc1Nc1ncc(C(F)(F)F)c(Oc2cccc3c2C(=O)N(C)C3)n1	human, plasma	oral, 200 mg once daily, multiple doses, steady state, patients	2750 nM
C=C(C)[C@@H]1CC[C@]2(NCCN3CCS(=O)(=O)CC3)CC[C@]3(C)[C@H](CC[C@@H]4[C@@]5(C)CC=C(C6=CC[C@@](CF)(C(=O)O)CC6)C(C)(C)[C@@H]5CC[C@]43C)[C@@H]12	human, plasma	oral, 80 mg, multiple doses, once daily, patients	750 ng/mL
Nc1ccc(-c2nc([C@H]3CCc4cc(-c5cc(Cl)ccc5-n5cnnn5)cc(=O)n43)c(F)[nH]2)c(F)n1	human, plasma	oral, 80 mg, single dose, fasted	942 ng/mL
CCc1nc(C(N)=O)c(Nc2ccc(N3CCC(N4CCN(C)CC4)CC3)c(OC)c2)nc1NC1CCOCC1	human, plasma	oral, 40 mg, single dose, fasted, healthy volunteers	21.2 ng/mL
CC(C)[C@@H](CS(=O)(=O)C(C)C)N1C(=O)[C@@](C)(CC(=O)O)C[C@H](c2cccc(Cl)c2)[C@H]1c1ccc(Cl)cc1	human, plasma	oral, 60 mg, single dose, fed	544 ng/mL
CCOc1cc([C@@H](CS(C)(=O)=O)N2C(=O)c3cccc(NC(C)=O)c3C2=O)ccc1OC	human, plasma	oral, 30 mg, single dose, healthy volunteers	298 ng/mL
